# Experimental data of several laboratories.
# Compare with care: the assays were run in different laboratories. ± gives the spread as reported.
SMILES,target or system,assay,system,conditions,scale,quantity,value
C=CC(=O)N1C[C@H](C)N(c2nc(OC[C@@]34CCCN3C[C@H](F)C4)nc3c(F)c(-c4ccc(F)c5sc(N)c(C#N)c45)c(C(F)(F)F)cc23)C[C@H]1C,,,"mouse, MIA PaCa-2 Matrigel plug","oral, 30 mg/kg single dose, 6 h",,pERK inhibition,92%
CN(C)c1ccc(-c2oc3ccccc3c(=O)c2OCc2ccccc2)cc1,,,diabetic rat,"7.5 mg/kg, 28 days, p-nitrophenyl β-glucoside induced",,serum total cholesterol,130 ± 4.66 mg/dL
CC12CC(O)C3CC1(OC1OC(CO)C(O)C(O)C1O)C3(COC(=O)c1ccccc1)C(=O)O2 (stereo not shown),,,"pseudo-germ-free mice, reserpine model","14 mg/kg, 7 days",,out-of-circle rate,20%
COc1cc(C(=O)OCCCN2CCCN(CCCOC(=O)c3cc(OC)c(OC)c(OCc4ccc([N+](=O)[O-])cc4)c3)CC2)cc(OC)c1OC,,licking and flinching,"mouse, formalin pain","intrathecal, 1 to 100 nmol",,formalin pain phase 2,decreased
COc1ccc2c(c1)c(CC(=O)OCOC(C)=O)c(C)n2C(=O)c1ccc(Cl)cc1,,,"BALB/c mice, acetic acid writhing","intraperitoneal, 20 mg/kg, 20 min count",,writhing count,12.2 ± 0.7
C=C(c1ccc(C(=O)O)c(F)c1)c1cc2c(cc1C)C(C)(C)C=CC2(C)C,,"RNA sequencing, refers to: Angptl4 mRNA","rat, brain","dose not given, 24 h, single dose",relative to: vehicle,log2 fold change,-1.43
Cc1ncc([N+](=O)[O-])n1CCOCc1nnc(SCC(=O)c2ccc(Cl)cc2)o1,,,,"75 µg/mL, 45 min",,DPPH scavenging,38.2 ± 0.54%
CCCCCCCOC(=O)Cc1c(C)n(C(=O)c2ccc(Cl)cc2)c2ccc(OC)cc12,,,"BALB/c mice, acetic acid writhing","intraperitoneal, 30 mg/kg, 20 min count",,writhing count,6.33 ± 1.78
CCCCC/C=C/C(=O)CCc1ccc(O)c(OC)c1,mouse mAb 1-D6,"antibody binding, indirect competitive ELISA",,with: coating antigen 4-OVA,,IC50,0.134 µg/mL
COc1ccc(S(=O)(=O)N2CCc3ccccc3C2)cc1N1CCN(C(=O)c2ccc(F)cc2C(F)(F)F)CC1,,,6-OHDA lesioned rats,"0.1 µg/24 h, 12 weeks post lesion",relative to: lesioned over intact side,TH-ir cells in SNpc,17.2 ± 3.3%
CC[C@H]1[C@@H](O)[C@@H]2[C@H](CC[C@]3(C)[C@@H]([C@H](C)CCOS(=O)(=O)[O-])CC[C@@H]23)[C@@]2(C)CC[C@@H](O)C[C@@H]12.[Na+],,EchoMRI,ob/ob NASH mouse model,"oral, 3 mg/kg once daily, before treatment, baseline of 8 week study",relative to: body weight,whole-body lean mass,30.3 ± 0.6%
[2H]C([2H])([2H])C(c1cc2nnc(-c3cc(F)ccc3F)n2nc1OCc1ncnn1C)(C([2H])([2H])[2H])C([2H])([2H])[2H],,,amygdala-kindled Wistar rats,"oral, 1 mg/kg, 2 h before stimulation, Racine scale, unit not given",relative to: baseline,seizure severity change,-1.8
COC(=O)C1C(c2nc3ncccc3[nH]2)=Cc2cc3c(cc2C1c1cc(OC)c(OC)c(OC)c1)OCO3 (stereo not shown),,Alamar Blue,"splenocytes, mouse",,relative to: CC50 splenocytes over EC50 amastigotes,selectivity index,1.9
CN1CCC[C@]1(C)/C=C/S(=O)(=O)NC(=O)Nc1c2c(cc3c1CCC3)CCC2,,"IL-1β release, ex vivo whole blood","human, whole blood","oral, 400 mg single dose, 24 h, with: LPS and ATP",,inhibition,> 90%
CCCCCCCCCCCCCCCC(=O)N[C@@H](CCC(=O)NCCCC[C@H](NC(=O)[C@H](CC(=O)O)NC(=O)[C@H](CO)NC(=O)[C@@H](NC(=O)[C@H](Cc1ccccc1)NC(=O)[C@@H](NC(=O)CNC(=O)[C@H](CCC(N)=O)NC(=O)[C@H](CO)NC(=O)[C@@H](N)Cc1c[nH]cn1)[C@@H](C)O)[C@@H](C)O)C(=O)N[C@@H](CO)C(=O)N[C@@H](CCC(=O)O)C(=O)N[C@@H](Cc1ccc(O)cc1)C(=O)N[C@@H](CC(C)C)C(=O)N[C@@H](CC(=O)O)C(=O)N[C@@H](CO)C(=O)N[C@@H](CCC(=O)O)C(=O)N[C@@H](CCCNC(=N)N)C(=O)N[C@@H](C)C(=O)N[C@@H](CCCNC(=N)N)C(=O)N[C@@H](CC(=O)O)C(=O)N[C@@H](Cc1ccccc1)C(=O)N[C@H](C(=O)N[C@@H](C)C(=O)N[C@@H](Cc1c[nH]c2ccccc12)C(=O)N[C@@H](CC(C)C)C(=O)N[C@@H](CCC(=O)O)C(=O)N[C@@H](C)C(=O)NCC(=O)NCC(=O)O)C(C)C)C(=O)O,,,male cynomolgus monkey,"subcutaneous, 8 nmol/kg/day for 8 weeks, day 57",relative to: starting body weight,body weight loss,5%
O=C1CCN(Cc2ccccc2)CC1C(C[N+](=O)[O-])c1ccccc1 (stereo not shown),,,mouse acetic acid writhing,"50 mg/kg, with: haloperidol 1 mg/kg pretreatment",,number of writhes,55.4 ± 1.05
CCCC[C@H](NC(=O)[C@@H](NC(=O)[C@H](CC(=O)O)NC(=O)[C@H](CCC(N)=O)NC(=O)[C@H](CC(C)C)NC(=O)[C@H](CC(C)C)NC(=O)[C@H](CCCN)NC(=O)[C@H](CCCNC(=N)N)NC(=O)[C@H](C)NC(=O)[C@H](CO)NC(=O)[C@H](CC(C)C)NC(=O)[C@H](CCC(N)=O)NC(=O)[C@H](CC)NC(=O)[C@H](CC(C)C)NC(=O)[C@@H](NC(=O)[C@H](CCCN)NC(=O)[C@H](CCCNC(=N)N)NC(=O)[C@H](Cc1ccc(O)cc1)NC(=O)[C@H](CO)NC(=O)[C@H](CCC(N)=O)NC(=O)[C@@H](NC(=O)[C@H](Cc1ccccc1)NC(=O)[C@@H](NC(=O)[C@H](C)NC(=O)[C@H](CC(=O)O)NC(=O)[C@@H](C)NC(=O)[C@H](Cc1ccc(O)cc1)N(C)C(C)=O)[C@@H](C)CC)[C@@H](C)O)C(C)C)[C@@H](C)CC)C(=O)N[C@@H](CC(=O)O)C(=O)NCCCCNC(=N)N,,"GH release, ELISA","male Sprague-Dawley rat, anaesthetised, serum","subcutaneous, 3 µg/kg, 0 min",,serum GH level,30.6 ± 7.2 ng/mL
COc1ccc(C2CC(c3ccc(C)cc3)=Nc3ccccc3S2)cc1 (stereo not shown),,,"rat, normal, overnight fasted","oral, 10 mg/kg, 120 min, oral glucose tolerance test, with: glucose 3 g/kg oral",,blood glucose,112 ± 4.45 mg/dL
CCCOC(=O)Cc1c(C)n(C(=O)c2ccc(Cl)cc2)c2ccc(OC)cc12,,acetic acid writhing test,BALB/c mouse,"intraperitoneal, 20 mg/kg",relative to: negative control,analgesia,64.4%
COc1ccc(-c2oc3ccccc3c(=O)c2OCc2ccccc2)cc1,,,diabetic rat,"5 mg/kg, p-nitrophenyl β-glucoside induced",,serum alkaline phosphatase,198 ± 4.71 IU
CCCC[C@H](NC(=O)[C@@H](NC(=O)[C@H](CC(=O)O)NC(=O)[C@H](CCC(N)=O)NC(=O)[C@H](CC(C)C)NC(=O)[C@H](CC(C)C)NC(=O)[C@H](CCCN)NC(=O)[C@H](CCCNC(=N)N)NC(=O)[C@H](C)NC(=O)[C@H](CO)NC(=O)[C@H](CC(C)C)NC(=O)[C@H](CCC(N)=O)NC(=O)[C@H](CC)NC(=O)[C@H](CC(C)C)NC(=O)[C@@H](NC(=O)[C@H](CCCN)NC(=O)[C@H](CCCNC(=N)N)NC(=O)[C@H](Cc1ccc(O)cc1)NC(=O)[C@H](CO)NC(=O)[C@H](CCC(N)=O)NC(=O)[C@@H](NC(=O)[C@H](Cc1ccccc1)NC(=O)[C@@H](NC(=O)[C@H](C)NC(=O)[C@H](CC(=O)O)NC(=O)[C@H](C)NC(=O)[C@H](Cc1ccc(O)cc1)NC)[C@@H](C)CC)[C@@H](C)O)C(C)C)[C@@H](C)CC)C(=O)N[C@@H](CC(=O)O)C(=O)NCCCCNC(=N)N,,"GH release, ELISA","male rat, anaesthetised, serum","intravenous, 1 µg/kg, 15 min",,serum GH level,250 ± 58.1 ng/mL
O=c1c(OCc2ccccc2)c(-c2ccc(Cl)cc2)oc2ccccc12,,,diabetic rat,"7.5 mg/kg, p-nitrophenyl β-glucoside induced",,serum alanine aminotransferase,29.3 IU
CCCC[C@H](NC(=O)[C@@H](NC(=O)[C@H](CC(=O)O)NC(=O)[C@H](CCC(N)=O)NC(=O)[C@H](CC(C)C)NC(=O)[C@H](CC(C)C)NC(=O)[C@H](CCCN)NC(=O)[C@H](CCCNC(=N)N)NC(=O)[C@H](C)NC(=O)[C@H](CO)NC(=O)[C@H](CC(C)C)NC(=O)[C@H](CCC(N)=O)NC(=O)[C@H](CC)NC(=O)[C@H](CC(C)C)NC(=O)[C@@H](NC(=O)[C@H](CCCN)NC(=O)[C@H](CCCNC(=N)N)NC(=O)[C@H](Cc1ccc(O)cc1)NC(=O)[C@H](CO)NC(=O)[C@H](CCC(N)=O)NC(=O)[C@@H](NC(=O)[C@H](Cc1c(F)c(F)c(F)c(F)c1F)NC(=O)[C@@H](NC(=O)[C@H](C)NC(=O)[C@H](CC(=O)O)NC(=O)[C@@H](C)NC(=O)[C@H](Cc1ccc(O)cc1)NC)[C@@H](C)CC)[C@@H](C)O)C(C)C)[C@@H](C)CC)C(=O)N[C@@H](CC(=O)O)C(=O)N[C@@H](CCCNC(=N)N)C(=O)NC,,"GH release, ELISA","male Sprague-Dawley rat, anaesthetised, serum","subcutaneous, 3 µg/kg, 30 min",,serum GH level,151 ± 28.5 ng/mL
Cc1ccc(-c2oc3ccccc3c(=O)c2OCc2ccccc2)cc1,,,diabetic rat,"5 mg/kg, p-nitrophenyl β-glucoside induced",,serum alkaline phosphatase,199 ± 4.11 IU
Cc1ccc(C(=O)Nc2ccc(CP(=O)(O)O)cc2CP(=O)(O)O)cc1NC(=O)c1cccc(NC(=O)Nc2cccc(C(=O)Nc3cc(C(=O)Nc4ccc(CP(=O)(O)O)cc4CP(=O)(O)O)ccc3C)c2)c1,,,human plasma,470 µM,,APTT,83.7 ± 8.6 s
Cc1csc(NC(=O)CN2CCC(O)CC2)n1,,,,"0.1 mM, 1 h",,DPPH radical scavenging,17.3%
NS(=O)(=O)c1ccc(NC(=O)NN[C@@H]2O[C@H](CO)[C@@H](O)[C@H](O)[C@H]2O)cc1,,,"rabbit, glaucoma model","topical ocular, 1 %, 1 h",,maximal IOP reduction,~5 mmHg
O=C1NCCC12CCN(c1c(Cl)cncc1-c1ccc(N3CCOCC3)cc1)CC2,,gene-expression microarray,"Tet-O-β-catenin intestinal organoids, mouse","2 µM, 24 h",,number of genes altered,34
COc1c2c(cc3oc(COC4OC(CO)C(O)C(O)C4O)cc(=O)c13)OC(C(C)(C)O)C2 (stereo not shown),,analgesia,mouse,"oral, 1 mg/kg, 0.5 h",,hot plate latency,9.51 ± 1.71 s
COCc1ccc(C=O)n1CCCC(=O)O,,"hydroxyl radical scavenging, H2O2/FeSO4, H2DCF-DA",,50% scavenging,,ED50,11.9 µM
CCCC[C@H](NC(=O)[C@@H](NC(=O)[C@H](CC(=O)O)NC(=O)[C@H](CCC(N)=O)NC(=O)[C@H](CC(C)C)NC(=O)[C@H](CC(C)C)NC(=O)[C@H](CCCN)NC(=O)[C@H](CCCNC(=N)N)NC(=O)[C@H](C)NC(=O)[C@H](CO)NC(=O)[C@H](CC(C)C)NC(=O)[C@H](CCC(N)=O)NC(=O)[C@H](CC)NC(=O)[C@H](CC(C)C)NC(=O)[C@@H](NC(=O)[C@H](CCCN)NC(=O)[C@H](CCCNC(=N)N)NC(=O)[C@H](Cc1ccc(O)cc1)NC(=O)[C@H](CO)NC(=O)[C@H](CCC(N)=O)NC(=O)[C@@H](NC(=O)[C@H](Cc1ccccc1)NC(=O)[C@@H](NC(=O)[C@H](C)NC(=O)[C@H](CC(=O)O)NC(=O)[C@H](C)NC(=O)CCc1ccc(O)cc1)[C@@H](C)CC)[C@@H](C)O)C(C)C)[C@@H](C)CC)C(=O)N[C@@H](CC(=O)O)C(=O)NCCCCNC(=N)N,,"GH release, ELISA","male rat, anaesthetised, serum","intravenous, 1 µg/kg, 0 min",,serum GH level,48 ± 10.4 ng/mL
COc1cc(CCC(C)=O)ccc1O,mouse mAb 1-D6,"antibody binding, indirect competitive ELISA",,with: coating antigen 4-OVA,,IC50,0.331 µg/mL
O=C(O)[C@H]1O[C@@H](Oc2cc(O)c3c(=O)cc(-c4ccc(O)cc4)oc3c2)[C@H](O)[C@@H](O)[C@@H]1O,,decreased,"Kunming mice, isoprenaline-induced myocardial infarction, serum","intravenous, 30 mg/kg daily for 7 days, day 7",relative to: model group,creatine kinase activity,decreased
COc1ccc2c(c1)c(CC(=O)OCC(=O)c1ccccc1)c(C)n2C(=O)c1ccc(Cl)cc1,,,"BALB/c mice, acetic acid writhing","intraperitoneal, 20 mg/kg, 20 min count",,writhing count,10.8 ± 1.68

# For quick reference, copied from above:
SMILES,target or system,assay,system,conditions,scale,quantity,value
Cc1ccc(C(=O)Nc2ccc(CP(=O)(O)O)cc2CP(=O)(O)O)cc1NC(=O)c1cccc(NC(=O)Nc2cccc(C(=O)Nc3cc(C(=O)Nc4ccc(CP(=O)(O)O)cc4CP(=O)(O)O)ccc3C)c2)c1,,,human plasma,470 µM,,APTT,83.7 ± 8.6 s
O=C(O)[C@H]1O[C@@H](Oc2cc(O)c3c(=O)cc(-c4ccc(O)cc4)oc3c2)[C@H](O)[C@@H](O)[C@@H]1O,,decreased,"Kunming mice, isoprenaline-induced myocardial infarction, serum","intravenous, 30 mg/kg daily for 7 days, day 7",relative to: model group,creatine kinase activity,decreased
CC[C@H]1[C@@H](O)[C@@H]2[C@H](CC[C@]3(C)[C@@H]([C@H](C)CCOS(=O)(=O)[O-])CC[C@@H]23)[C@@]2(C)CC[C@@H](O)C[C@@H]12.[Na+],,EchoMRI,ob/ob NASH mouse model,"oral, 3 mg/kg once daily, before treatment, baseline of 8 week study",relative to: body weight,whole-body lean mass,30.3 ± 0.6%
O=C1CCN(Cc2ccccc2)CC1C(C[N+](=O)[O-])c1ccccc1 (stereo not shown),,,mouse acetic acid writhing,"50 mg/kg, with: haloperidol 1 mg/kg pretreatment",,number of writhes,55.4 ± 1.05
